Assay results pooled from the literature.
Every numbered part comes from another study and shows a few of its results, in no order.

Block 1
Target: Homeobox protein Hox-C11, full length (HOXC11, Homo sapiens, UniProt O43248, residues 1-304)
Chain of UniProt O43248 (whole entry, looked up): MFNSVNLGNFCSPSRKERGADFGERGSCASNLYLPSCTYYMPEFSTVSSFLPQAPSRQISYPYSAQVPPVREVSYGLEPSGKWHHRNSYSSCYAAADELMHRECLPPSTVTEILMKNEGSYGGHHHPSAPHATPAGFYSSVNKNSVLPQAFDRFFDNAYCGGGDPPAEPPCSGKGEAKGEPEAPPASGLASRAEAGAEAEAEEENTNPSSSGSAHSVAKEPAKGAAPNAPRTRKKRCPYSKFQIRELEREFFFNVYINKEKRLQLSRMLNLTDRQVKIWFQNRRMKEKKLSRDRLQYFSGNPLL
Technique: protein-binding microarray
Molecule type: hairpin DNA
Sample: in vitro
Concentration: not given
Setting: whole hairpin DNA, median over replicate spots
Relative to: not given
Direction: higher = stronger binding
| Oligonucleotide | median fluorescence |
| --- | --- |
| GAGGCCAGGTCGTTAAGGCCTCCTGGCCTTAACGACCTGGCCTCACACTC | 10400 a.u. |
| GAGGCCAGCGCGTAAAAGCCTCCTGGCTTTTACGCGCTGGCCTCACACTC | 10600 a.u. |
| GAGGCCGGGTCGTAAAAGCCTCCTGGCTTTTACGACCCGGCCTCACACTC (5mC at 38) | 11000 a.u. |

Block 2
Cell line: HEK-293T/ACE2
Concentration: concentration not given
Time: 16 (unit not given)
Relative to: vehicle
| SMILES | viability [%] |
| --- | --- |
| Cc1ccc(N(CC2=NCCN2)c2cccc(O)c2)cc1 | 102 |
| CC(O)(CS(=O)(=O)c1ccc(F)cc1)C(=O)Nc1ccc(C#N)c(C(F)(F)F)c1 (centres unmarked) | 97.2 |
| c1ccc(CC2=NCCN2)cc1 | 97.8 |

Block 3
Target: Phosphate system positive regulatory protein PHO4, full length, GST-tagged (PHO4, Saccharomyces cerevisiae, UniProt P07270, residues 1-312)
Chain of UniProt P07270 (whole entry, looked up): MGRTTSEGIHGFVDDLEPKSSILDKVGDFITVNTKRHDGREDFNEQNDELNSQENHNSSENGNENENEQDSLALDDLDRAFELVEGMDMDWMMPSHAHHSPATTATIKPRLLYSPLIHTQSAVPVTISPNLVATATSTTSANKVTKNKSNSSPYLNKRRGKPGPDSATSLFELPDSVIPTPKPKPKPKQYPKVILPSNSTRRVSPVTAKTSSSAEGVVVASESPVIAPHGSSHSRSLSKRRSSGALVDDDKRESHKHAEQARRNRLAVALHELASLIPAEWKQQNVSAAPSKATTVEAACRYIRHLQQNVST
Technique: competition protein-binding microarray
Molecule type: double-stranded DNA, one strand shown
Sample: in vitro
Concentration: 2 µM
Setting: whole 60-bp probe, lowest competitor level
With: Cbf1 competitor, 0.05 µM
Direction: higher = stronger binding
| Oligonucleotide | fluorescence intensity [a.u.] |
| --- | --- |
| TTTTGTTGTTATATTCACGTGCCAGTTTGCTTTTATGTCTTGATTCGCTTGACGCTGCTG | 17100 |
| AACCTACCATGGTAGCACATGAAGAAGCAACCACCCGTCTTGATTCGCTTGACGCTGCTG | 6140 |
| CTTTCCCGATCTTGTTTGGTGGGTGTAGCACATTTGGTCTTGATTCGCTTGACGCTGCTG | 4630 |
| ACCGGTTGATGTACTAACGTGACGAACAGTTTCATCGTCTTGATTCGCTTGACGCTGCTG | 7340 |
| AAATTACTAAGTTGGTCAGTGGGTGACGCCGTATGAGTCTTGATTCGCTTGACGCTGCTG | 3600 |
| AAATTACTAAGTTGGCCCGTGGGTGACGCCGTATGAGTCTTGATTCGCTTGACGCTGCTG | 8580 |
| CTTTCCCGATCTTGCGCTGTGGGTGTAGCACATTTGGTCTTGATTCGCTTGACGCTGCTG | 4650 |
| CCGCGGAATAGCGTTCCCGTGGGTAGAAAAGCAGCAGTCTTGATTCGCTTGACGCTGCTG | 7560 |

Block 4
Organism: SARS-CoV-2
Observed: cytopathic effect
Cells: Vero E6
Concentration: 10 µM
| Compound | inhibition |
| --- | --- |
| O=C(O)c1ccc(SSc2ccc(C(=O)O)cn2)nc1 | 4.3% |
| COc1cc(N(C)C)cc(CN(C)CCc2ccc([N+](=O)[O-])cc2)c1O | 22.4% |
| O=[N+]([O-])C=Cc1ccc2c(c1)OCO2 | -3.1% |

Block 5
Target: Replicase polyprotein 1ab, polymerase (rep, Severe acute respiratory syndrome coronavirus 2, UniProt P0DTD1)
Observed: enzyme activity
Mode: inhibitor
Concentration: 20 µM
| Structure (SMILES) | inhibition [%] |
| --- | --- |
| CCCc1nc2c(C)cc(-c3nc4ccccc4n3C)cc2n1Cc1ccc(-c2ccccc2C(=O)O)cc1 | 8.43 |
| N[C@@H]1C[C@H]1c1ccccc1 (racemic) | 18.2 |
| OC(CCN1CCCCC1)(c1ccccc1)C1C[C@@H]2C=C[C@H]1C2 (some centres unmarked) | -3.28 |
| COC(=O)[C@H](c1ccccc1Cl)N1CCc2sccc2C1 | -9.93 |
| O=C(O)CNC(=O)C1C(=O)N(C2CCCCC2)C(=O)N(C2CCCCC2)C1=O | -0.82 |
| O=C1NC(=O)C(=Cc2ccc(-c3ccc(F)cc3)o2)S1 (stereo in doubt) | -1.64 |
| Cc1[nH]c2ccccc2c1CCNCc1ccc(/C=C/C(=O)NO)cc1 | 0.08 |
| COc1cc(N2CCC(N)CC2)ccc1Nc1ncc(Cl)c(-c2c[nH]c3ccccc23)n1 | 25.8 |
| O=C(c1cccc(Br)c1)N1CCC(N2CCCC2)CC1 | -2.21 |
| S=C(NCc1ccc2c(c1)OCO2)N1CCN(c2ncnc3c2oc2ccccc23)CC1 | 2.2 |
| O=C(CNC(=O)c1cccc(C(F)(F)F)c1)N[C@@H]1CCN(Cc2ccc(Cl)cc2)C1 | -2.5 |
| O=C(O)[C@H](Cc1ccc(Nc2nccc3ccncc23)cc1)NC1=C(Br)C(=O)C12CCCCC2 | 3.57 |
| COC(=O)C1=C(C)NC(C)=C(C(=O)OC(C)(C)CN(C)CCC(c2ccccc2)c2ccccc2)C1c1cccc([N+](=O)[O-])c1 (centres unmarked) | -2.96 |
| COc1cc2c(NC3CCN(C)CC3)nc(N3CCCN(C)CC3)nc2cc1OCCOCCN(C)C | 3.76 |
| O=C(O)CCCC[C@@H]1SC[C@@H]2NC(=O)N[C@@H]21 | 20.8 |
| CN1C2=CC(=O)/C(=N\NC(N)=O)C=C2CC1S(=O)(=O)O (centres unmarked) | 1.36 |
| O[C@@H]1CCCC[C@H]1N1CCC(c2ccccc2)CC1 (racemic) | -1.96 |
| CC(C)C[C@H](NC(=O)CNC(=O)c1cc(Cl)ccc1Cl)B1OC(=O)C(CC(=O)O)(CC(=O)O)O1 | 3.5 |
| COc1ccc(-n2c(SCc3nc(-c4ccc(C)cc4)no3)nnc2-c2ccncc2)cc1 | 0.03 |
| CSc1nc(NC2CCCC2)c([N+](=O)[O-])c(NC2CCCC2)n1 | 3.74 |
| O=C(Nc1cnccc1Cl)N1CCN(Cc2ccc3c(c2)OC(F)(F)O3)CC1 | -0.17 |
| Cc1ncc(CO)c(CO)c1O | -2.71 |
| N=C(N)NN | 5.85 |
| CCCCCCCCCCCCCCOc1ccc(C(=O)O)o1 | -3.5 |
| Cc1nc2ccccc2c(-c2ccc3c4c(ccnc24)CCO3)c1[C@H](OC(C)(C)C)C(=O)O | -0.45 |

Block 6
Target: Interferon regulatory factor 5, full length, phosphomimetic (IRF5, Homo sapiens, UniProt Q13568-2, residues 1-514, S451D/S453D/S456D/S462D)
Technique: protein-binding microarray
Molecule type: double-stranded DNA, one strand shown
Sample: in vitro
Concentration: 940 nM top
Setting: 60-bp whole probe
With: salmon DNA 0.4 mg/ml
Relative to: random background probes
Direction: higher = stronger binding
Constant ends, left off below: GCCTAGCAC … GTCTTGATTCGCTTGACGCTGCTG
| Oligonucleotide | fitted relative affinity [z-score] |
| --- | --- |
| TTACGTTTCGGGTATCGGTTAGTGCTA | 7.6 |
| CATTTATTTACTCTCTACATGTGCTAG | 2.1 |
| TTAGATTTCAGTCTCGAGTAGTGCTAG | 2.21 |
| TTAGGACTGCACTTTCGGTTAGTGCTA | 2.99 |
| GTAGGTCTCGGTCTCGGTTAGTGCTAG | 5.04 |
| GACGGTTTCGGTCTCGGGGCGTGCTAG | 13.7 |
| TGTCCTTTCTCCATGGGTATGTGCTAG | 0.709 |
| TTAGCTTTCGGTCTCGGTTAGTGCTAG | 7.34 |

For quick reference, copied from above (block 5):
| Structure (SMILES) | inhibition [%] |
| --- | --- |
| O=C(O)[C@H](Cc1ccc(Nc2nccc3ccncc23)cc1)NC1=C(Br)C(=O)C12CCCCC2 | 3.57 |
| COC(=O)C1=C(C)NC(C)=C(C(=O)OC(C)(C)CN(C)CCC(c2ccccc2)c2ccccc2)C1c1cccc([N+](=O)[O-])c1 (centres unmarked) | -2.96 |
| COc1cc2c(NC3CCN(C)CC3)nc(N3CCCN(C)CC3)nc2cc1OCCOCCN(C)C | 3.76 |
| O=C(O)CCCC[C@@H]1SC[C@@H]2NC(=O)N[C@@H]21 | 20.8 |
